# Measurements gathered from unrelated publications.
# ± gives the spread as reported.
# T1: RNA aptamer A50U; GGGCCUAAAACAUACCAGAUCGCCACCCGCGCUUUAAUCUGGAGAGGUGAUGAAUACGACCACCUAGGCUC
target,assay,test system,conditions,scale,quantity,value,SMILES
"Immunoglobulin heavy constant gamma 1 (IGHG1, Homo sapiens, UniProt P01857)","binding, ITC",,"25 °C, with: Herceptin",,–TΔS,3.9 ± 0.3 kcal/mol,CC(=O)N[C@@H](CC(=O)O)C(=O)N[C@H]1CSSC[C@@H](C(=O)N[C@H](C(=O)N[C@@H](Cc2ccccc2)C(=O)N[C@@H](Cc2c[nH]cn2)C(N)=O)[C@@H](C)O)NC(=O)[C@H](Cc2c[nH]c3ccccc23)NC(=O)[C@H](C(C)C)NC(=O)[C@H](CC(C)C)NC(=O)[C@H](CCC(=O)O)NC(=O)CNC(=O)[C@H](CC(C)C)NC(=O)[C@H](Cc2c[nH]cn2)NC(=O)[C@H](Cc2ccc(O)cc2)NC(=O)[C@H](C)NC1=O
HIV-1 TAR RNA,,,,,non-electrostatic TΔS°,-9.13 ± 0.287 kcal/mol,CC(=O)NCCN(CCC(=O)NCCN(CCC(=O)NCCN(CCC(=O)NCCC(N)=O)C(=O)[C@@H](N)CCCNC(=N)N)C(=O)[C@@H](N)CCCCN)C(=O)[C@@H](N)Cc1ccccc1
mushroom tyrosinase,enzyme activity,,"25 µg/mL, with: L-DOPA",,inhibition,28.92 ± 0.11%,Cc1cc(O)cc2c1C(=O)c1c(cc3oc(=O)cc(-c4ccccc4)c3c1O)C2=O
"T1, RNA aptamer A50U",ITC,,"pH 7.5, 25 °C, MgCl2 10 mM",,Kd,208 nM,CN(C)[C@@H]1C(=O)C(C(N)=O)=C(O)[C@@]2(O)C(=O)C3=C(O)c4c(O)cccc4[C@@](C)(O)[C@H]3C[C@@H]12
"Kinesin-like protein KIF15 (Homo sapiens, UniProt Q9NS87)",microtubule-activated ATPase activity,,"30 µM, with: ATP, microtubules 3 µM",,kcat,4.1 ± 0.4 s⁻¹,FC(F)(F)c1csc(Nc2ccc(Cl)c(Cl)c2)n1
"CES1 (Homo sapiens, UniProt P23141)","enzyme activity, substrate",,,relative to: CES1 over human CES2,specific activity ratio,13,CCCCCCCC(=O)Nc1ccc(OC)nc1C
"AKT3 (Homo sapiens, UniProt Q9Y243)",DNA-templated library selection,,one selection round,,enrichment factor,1.5,NC(=O)C1CCCCNC(=O)C(CCCNC(=O)c2cnccn2)NC(=O)C(Cc2ccco2)NC(=O)C(CC2CC2)NC(=O)C=CC(=O)N1 (stereo not drawn)
"Unconventional myosin-Va (Gallus gallus, UniProt Q02440, D297C/G292C/I296C/S293C/V295G)",,,"no Mg, detailed balance",,k+pocket rate constant,4.2 s⁻¹,CNc1ccccc1C(=O)O[C@H]1C[C@H](n2cnc3c(N)ncnc32)O[C@@H]1COP(=O)(O)OP(=O)(O)O
"CD38 (Homo sapiens, UniProt P28907)","hydrolase activity, fluorometric",,"50 µM, with: ε-NAD+ substrate",relative to: untreated,remaining activity,47.9 ± 1.2%,CC1=NC(Nc2nc(C)c3cc(C)cc(C)c3n2)=NC(C)(C)C1
"TLR2 (Homo sapiens, UniProt O60603)",europium TRF saturation binding,HEK293 expressing human TLR2,,,Bmax,114000 AFU,CCCCCCCCCCCCCCCC(=O)OC[C@H](CSC[C@H](NC(=O)COCC(=O)NCCCOCCOCCOCCCNC(=O)CN(CCN(CCN(CC(=O)O)CC(=O)O)CC(=O)O)CC(=O)O)C(=O)NCC(=O)N[C@H](CO)C(=O)NCCCOCCOCCOCCCNC(=O)COCC(N)=O)OC(=O)CCCCCCCCCCCCCCC
"CXCR4 (Homo sapiens, UniProt P61073)",PET/CT,"human, left adrenal lateral limb nodule","170 MBq, 60 min",,SUVmax,11,CN1C(=O)[C@@H](Cc2ccc(O)cc2)NC(=O)CNC(=O)[C@H](Cc2ccc3ccccc3c2)NC(=O)[C@H](CCCNC(=N)N)NC(=O)[C@H]1CCCNC(=O)c1ccc(CNC(=O)CN2CCN(CC(=O)O)CCN(CC(=O)O)CCN(CC(=O)O)CC2)cc1 [gallium-68 labelled]
HIV-1 TAR RNA,,,extrapolated to 1 M KCl,,non-electrostatic ΔG°,-8.29 ± 0.0956 kcal/mol,CC(=O)NCCN(CCC(=O)NCCN(CCC(=O)NCCN(CCC(=O)NCCC(N)=O)C(=O)[C@@H](N)Cc1ccccc1)C(=O)[C@@H](N)Cc1ccccc1)C(=O)[C@@H](N)CCCNC(=N)N

# Excerpt of the above:
target,assay,test system,conditions,scale,quantity,value,SMILES
"CXCR4 (Homo sapiens, UniProt P61073)",PET/CT,"human, left adrenal lateral limb nodule","170 MBq, 60 min",,SUVmax,11,CN1C(=O)[C@@H](Cc2ccc(O)cc2)NC(=O)CNC(=O)[C@H](Cc2ccc3ccccc3c2)NC(=O)[C@H](CCCNC(=N)N)NC(=O)[C@H]1CCCNC(=O)c1ccc(CNC(=O)CN2CCN(CC(=O)O)CCN(CC(=O)O)CCN(CC(=O)O)CC2)cc1 [gallium-68 labelled]
